Measured values collected from several papers.
A part holds a random share of what one study measured. Positions count from the first letter of the parent shown.
Chain of UniProt P00519 (whole entry, unmodified, looked up): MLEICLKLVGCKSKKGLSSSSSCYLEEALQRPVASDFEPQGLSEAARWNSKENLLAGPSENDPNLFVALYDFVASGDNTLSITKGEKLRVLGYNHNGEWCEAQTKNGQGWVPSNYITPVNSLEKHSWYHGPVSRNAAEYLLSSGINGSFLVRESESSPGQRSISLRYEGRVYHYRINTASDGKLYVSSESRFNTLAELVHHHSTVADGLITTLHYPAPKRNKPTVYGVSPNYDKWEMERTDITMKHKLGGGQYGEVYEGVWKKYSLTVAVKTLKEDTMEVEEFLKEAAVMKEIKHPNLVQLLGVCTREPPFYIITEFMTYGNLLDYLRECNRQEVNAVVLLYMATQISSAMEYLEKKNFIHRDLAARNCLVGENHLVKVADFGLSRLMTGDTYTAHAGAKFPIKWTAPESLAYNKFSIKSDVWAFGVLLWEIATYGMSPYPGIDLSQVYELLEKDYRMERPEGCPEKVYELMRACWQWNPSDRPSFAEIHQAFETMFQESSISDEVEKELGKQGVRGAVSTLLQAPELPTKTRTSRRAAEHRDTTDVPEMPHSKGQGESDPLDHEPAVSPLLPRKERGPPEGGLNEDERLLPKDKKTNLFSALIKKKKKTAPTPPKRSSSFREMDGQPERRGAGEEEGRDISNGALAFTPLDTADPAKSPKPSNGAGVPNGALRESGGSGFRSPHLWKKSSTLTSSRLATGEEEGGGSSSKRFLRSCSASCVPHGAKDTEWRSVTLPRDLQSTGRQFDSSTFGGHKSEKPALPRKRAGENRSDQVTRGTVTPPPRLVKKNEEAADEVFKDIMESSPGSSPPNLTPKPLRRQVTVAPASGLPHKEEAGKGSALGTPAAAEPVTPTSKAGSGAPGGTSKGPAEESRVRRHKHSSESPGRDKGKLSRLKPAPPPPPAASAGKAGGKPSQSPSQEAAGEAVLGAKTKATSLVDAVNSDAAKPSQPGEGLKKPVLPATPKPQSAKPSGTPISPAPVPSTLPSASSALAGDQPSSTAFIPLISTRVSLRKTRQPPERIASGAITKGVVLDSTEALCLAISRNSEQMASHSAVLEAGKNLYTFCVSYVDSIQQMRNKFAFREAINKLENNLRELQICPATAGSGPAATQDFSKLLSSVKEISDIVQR
Chain of UniProt O43283 (whole entry, looked up): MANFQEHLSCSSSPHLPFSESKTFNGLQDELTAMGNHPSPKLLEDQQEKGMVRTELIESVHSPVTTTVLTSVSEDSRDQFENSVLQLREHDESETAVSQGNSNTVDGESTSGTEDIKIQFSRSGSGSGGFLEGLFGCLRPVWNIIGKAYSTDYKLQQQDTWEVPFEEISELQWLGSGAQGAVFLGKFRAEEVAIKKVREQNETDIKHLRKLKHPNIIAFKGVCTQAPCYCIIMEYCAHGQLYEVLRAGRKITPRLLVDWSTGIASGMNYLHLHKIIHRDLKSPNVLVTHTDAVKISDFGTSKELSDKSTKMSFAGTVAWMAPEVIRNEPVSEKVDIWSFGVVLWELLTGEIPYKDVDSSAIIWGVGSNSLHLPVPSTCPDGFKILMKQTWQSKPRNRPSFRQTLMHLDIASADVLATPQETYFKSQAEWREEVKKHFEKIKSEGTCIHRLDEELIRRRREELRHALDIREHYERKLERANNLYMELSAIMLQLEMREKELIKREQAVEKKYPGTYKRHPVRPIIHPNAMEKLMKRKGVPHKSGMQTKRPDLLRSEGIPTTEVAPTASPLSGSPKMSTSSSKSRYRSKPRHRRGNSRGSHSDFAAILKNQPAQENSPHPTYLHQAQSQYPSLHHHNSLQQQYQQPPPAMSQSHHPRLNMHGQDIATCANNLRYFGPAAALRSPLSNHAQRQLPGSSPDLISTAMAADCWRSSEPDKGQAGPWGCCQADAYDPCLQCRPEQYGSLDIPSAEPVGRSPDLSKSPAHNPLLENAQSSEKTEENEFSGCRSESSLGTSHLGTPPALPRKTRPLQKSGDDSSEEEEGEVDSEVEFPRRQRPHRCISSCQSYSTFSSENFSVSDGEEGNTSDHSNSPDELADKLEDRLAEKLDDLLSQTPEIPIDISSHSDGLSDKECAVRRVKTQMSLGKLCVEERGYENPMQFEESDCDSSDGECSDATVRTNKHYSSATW
Chain of UniProt Q96PY6 (whole entry, looked up): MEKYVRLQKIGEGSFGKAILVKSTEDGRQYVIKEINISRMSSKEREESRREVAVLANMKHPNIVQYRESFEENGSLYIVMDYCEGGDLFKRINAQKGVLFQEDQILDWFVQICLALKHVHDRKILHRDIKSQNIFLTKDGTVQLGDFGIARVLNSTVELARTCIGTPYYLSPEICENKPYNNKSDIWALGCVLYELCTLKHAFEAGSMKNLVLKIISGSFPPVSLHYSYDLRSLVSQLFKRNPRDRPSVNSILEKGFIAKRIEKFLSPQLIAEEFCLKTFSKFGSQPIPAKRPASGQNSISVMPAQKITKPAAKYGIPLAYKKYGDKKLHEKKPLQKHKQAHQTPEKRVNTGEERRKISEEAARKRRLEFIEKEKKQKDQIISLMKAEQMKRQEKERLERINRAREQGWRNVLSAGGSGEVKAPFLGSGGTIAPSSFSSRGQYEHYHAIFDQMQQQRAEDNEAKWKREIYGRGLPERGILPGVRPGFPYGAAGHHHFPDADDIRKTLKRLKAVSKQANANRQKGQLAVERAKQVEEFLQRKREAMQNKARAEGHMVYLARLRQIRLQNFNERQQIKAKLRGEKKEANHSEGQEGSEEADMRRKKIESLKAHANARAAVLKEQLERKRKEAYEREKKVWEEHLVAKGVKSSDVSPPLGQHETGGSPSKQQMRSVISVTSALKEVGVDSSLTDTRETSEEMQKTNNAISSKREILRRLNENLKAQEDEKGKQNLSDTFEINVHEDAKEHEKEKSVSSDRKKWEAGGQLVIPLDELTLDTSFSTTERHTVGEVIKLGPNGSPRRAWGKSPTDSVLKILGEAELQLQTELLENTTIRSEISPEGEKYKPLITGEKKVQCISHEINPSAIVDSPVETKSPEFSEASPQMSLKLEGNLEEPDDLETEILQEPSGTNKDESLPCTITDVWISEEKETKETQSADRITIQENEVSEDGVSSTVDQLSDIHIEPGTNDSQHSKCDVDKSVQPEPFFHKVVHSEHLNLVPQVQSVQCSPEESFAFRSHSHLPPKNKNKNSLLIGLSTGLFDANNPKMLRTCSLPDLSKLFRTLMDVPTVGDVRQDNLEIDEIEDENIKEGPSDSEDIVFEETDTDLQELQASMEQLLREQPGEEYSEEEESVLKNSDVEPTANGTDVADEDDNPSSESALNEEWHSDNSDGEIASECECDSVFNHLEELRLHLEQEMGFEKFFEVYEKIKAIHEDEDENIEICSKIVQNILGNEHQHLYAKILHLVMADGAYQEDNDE
Chain of UniProt P46734 (whole entry, looked up): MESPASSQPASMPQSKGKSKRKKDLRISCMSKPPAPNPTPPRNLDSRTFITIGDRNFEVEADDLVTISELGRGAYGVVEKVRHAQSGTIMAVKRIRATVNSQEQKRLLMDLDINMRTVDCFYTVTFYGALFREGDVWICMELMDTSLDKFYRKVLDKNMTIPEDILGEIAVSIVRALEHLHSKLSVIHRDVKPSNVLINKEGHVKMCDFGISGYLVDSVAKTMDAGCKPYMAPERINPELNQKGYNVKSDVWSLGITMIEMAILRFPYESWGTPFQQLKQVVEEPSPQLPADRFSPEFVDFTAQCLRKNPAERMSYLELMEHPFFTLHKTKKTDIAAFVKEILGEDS
Chain of UniProt P37173 (whole entry, looked up): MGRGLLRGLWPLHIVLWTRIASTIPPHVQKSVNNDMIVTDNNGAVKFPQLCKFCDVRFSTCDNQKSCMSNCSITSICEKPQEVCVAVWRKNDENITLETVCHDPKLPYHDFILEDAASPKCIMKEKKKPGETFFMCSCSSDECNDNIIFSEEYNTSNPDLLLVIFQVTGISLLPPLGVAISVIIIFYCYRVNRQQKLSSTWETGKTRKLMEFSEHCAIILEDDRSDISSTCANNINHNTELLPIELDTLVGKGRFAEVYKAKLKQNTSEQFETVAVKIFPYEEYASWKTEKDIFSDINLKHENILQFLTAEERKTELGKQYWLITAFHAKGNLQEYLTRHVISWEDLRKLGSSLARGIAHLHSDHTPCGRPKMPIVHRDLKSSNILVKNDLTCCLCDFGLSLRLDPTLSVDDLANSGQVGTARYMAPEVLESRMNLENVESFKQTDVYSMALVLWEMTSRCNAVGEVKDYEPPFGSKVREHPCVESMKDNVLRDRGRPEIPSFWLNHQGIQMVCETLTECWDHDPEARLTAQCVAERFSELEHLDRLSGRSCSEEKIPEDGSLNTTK

Set 1
Target: RNA binding protein fox-1 homolog 2, RRM domain, GST-SBP tag (RBFOX2, Homo sapiens, UniProt O43251-10, residues 100-194)
Technique: RNA Bind-n-Seq
Molecule type: RNA
Matrix: in vitro
Tested at: 365 nM
Setting: natural RNA segment, single round, ends assumed
Reference: no-protein control
Reading: higher = stronger binding
Shared flanks, not repeated: GGGAGUUCUACAGUCCGACGAUC … UGGAAUUCUCGGGUGCCAA
Target sequence (chain): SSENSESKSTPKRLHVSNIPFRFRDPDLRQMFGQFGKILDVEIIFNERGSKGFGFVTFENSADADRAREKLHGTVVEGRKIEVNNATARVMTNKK
Sequence	RBNS enrichment (R)
AGCAAGUUUCUUCUGCAGCCCUGCCGUGCUUGAGGAAGGGCCUGAGGAGGAAGGGACACUCACUCUGGAAGCUCUGCAGCCACUCCGUGCCAGGUGCCUUAACUCUGGGA	2.73
CCAGCCAGGCUAGAGGAGUGCCAGCAGGUCCCAGUAGGUCCUUAGGAAGGCUGUCAAGGCCCAGUCCAUGGUUCCUUCUCUGCUUCUCCUACAUACCUUUCCCAUCACAC	0.255
UCGGCAGCGUAGCCAGCUGCUGCUUGAGGCCAUGGCUCGUCCCCGGAGUUGGGGGUACCCGUUGCAGAGCCAGGGACAUGAUGCAGGCGAAGCUUGGGAUCUGGCCAAGU	1.36
GGUGCUCUCUGGCUCCCAGAUGUCUAGGGCUCCAGACUCCAAGAGGGCUGAGCCUUCUCUUCUGUCUGCAGCCACAAUAGGCUUCCUCAGACGCUGGCUUGAGAGGAGCC	0.282
UAUGUUUAAAAAGUAUGUUCUAAAAUUAUUAUAUAUACAUGGGUGAAUUAUGUUUCCGAGGCACUGUUUUAUCUCUGUGAAUCUUGAAUAACUUUUUUAUAUUUGGGUUA	1.08
CCUCGGGGGAUUAAAGGAUCUAAAGAGAAAAUGGCACCUGGUUGUCUUCGUGCUGUGUCUCAUGGGUUUCCAUAGUGAUAAAGACAAGGAAACGCUGCAGGGGCCACAGG	0.293
AAGAGCUAUUACAAUCCAAAUAUUGCCGUUUCAUAAAUGUAAUAAGUAAUACUAAUUCACAGAGUAUUGUAAAUGGUGGAUGACAAAAGAAAAUCUGCUCUGUGGAAAGA	0.414
ACAUACAUAUGCCGUAAGGCGCAAUCACUGUUUCAGACUUAAAAUUAUUAGUGUGUUUGUUUGGUCCAGAAACUGAGACAAUCACAUGACAGUCACCACGAGGAGAGAAA	0.509

Set 2
Target: JUN, bZIP domain (human)
Technique: DHFR protein complementation
Matrix: yeast
Setting: single substitutions, most at no-binding floor
Reference: wild-type JUN-FOS pair
Reading: higher = stronger binding
Starting sequence: JUN, bZIP domain (human); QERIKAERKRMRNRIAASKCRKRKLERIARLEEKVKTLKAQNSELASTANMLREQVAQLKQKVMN; partner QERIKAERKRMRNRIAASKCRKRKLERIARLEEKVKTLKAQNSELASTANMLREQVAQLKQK
Substitution	binding fitness
T37A	-0.0972 natural log
A57R	-0.315 natural log
R53L	-0.854 natural log
K39Q	-0.146 natural log
E32Y	-0.988 natural log
A40D	-0.281 natural log
V56A	-0.643 natural log
A46D	-0.913 natural log

Set 3
Target: Mitogen-activated protein kinase kinase kinase 3 (MAP3K3, Homo sapiens, UniProt Q99759)
Chain of UniProt Q99759 (whole entry, looked up): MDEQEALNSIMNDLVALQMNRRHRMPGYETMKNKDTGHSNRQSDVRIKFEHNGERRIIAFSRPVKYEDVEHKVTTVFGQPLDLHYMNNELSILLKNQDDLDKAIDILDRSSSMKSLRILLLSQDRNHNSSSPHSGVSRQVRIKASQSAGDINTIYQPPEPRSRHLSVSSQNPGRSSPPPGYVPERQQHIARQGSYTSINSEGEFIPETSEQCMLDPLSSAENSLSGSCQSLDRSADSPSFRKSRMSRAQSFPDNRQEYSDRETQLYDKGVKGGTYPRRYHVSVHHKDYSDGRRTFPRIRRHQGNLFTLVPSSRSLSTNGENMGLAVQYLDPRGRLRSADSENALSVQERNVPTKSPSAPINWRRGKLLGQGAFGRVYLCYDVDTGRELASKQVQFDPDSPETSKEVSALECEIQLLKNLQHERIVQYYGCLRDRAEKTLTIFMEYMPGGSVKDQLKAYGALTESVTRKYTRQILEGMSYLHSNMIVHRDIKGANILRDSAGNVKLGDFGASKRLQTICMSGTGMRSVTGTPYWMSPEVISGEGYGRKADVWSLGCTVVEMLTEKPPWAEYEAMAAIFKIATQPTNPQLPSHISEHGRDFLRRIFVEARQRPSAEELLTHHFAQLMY
Effect on: enzyme activity
Action: inhibitor
Tested at: 0.5 µM
Reference: control
Structure (SMILES)	remaining activity [%]
O=S(=O)(c1cccc2cnccc12)N1CCCNCC1	89.3
COc1cc2nccc(Oc3ccc(NC(=S)NC(=O)c4ccccc4C)cc3)c2cc1OC	105
O=C1NC(=O)C(c2cn(CCCn3ccnc3)c3ccccc23)=C1Nc1ccccc1	95.8
Cc1cccc(-c2[nH]c(C(C)(C)C)nc2-c2ccc3c(c2)OCO3)n1	120
N#CC(C#N)=C(N)/C(C#N)=C/c1ccc(O)cc1	78.6
C#Cc1cccc(Nc2ncnc3cc(OCCOC)c(OCCOC)cc23)c1	117
OCC(O)CCON=C1C(c2c(O)[nH]c3ccccc23)=Nc2ccccc21 (centres unmarked)	87.8
COc1cc2ncnc(Nc3ccc(F)c(Cl)c3)c2cc1OCCCN1CCOCC1	107
Cn1c2ccccc2c2c3c(c4c5ccccc5n(CCC#N)c4c21)CNC3=O	5.86

Set 4
Compound: CSc1cccnc1N1CCN(Cc2nc3ccccc3[nH]2)CC1
Tested at: 1 µM
target	effect on	technique	setting	reference	remaining binding [%]
TGFBR2 (Homo sapiens, UniProt P37173)	cell-free assay	competition with immobilised ligand	–	–	99
NEK1 (Homo sapiens, UniProt Q96PY6)	cell-free assay	competition with immobilised ligand	–	–	100
ULK3 (Homo sapiens, UniProt Q6PHR2)	cell-free assay	competition with immobilised ligand	–	–	81
FYN (Homo sapiens, UniProt P06241)	cell-free assay	competition with immobilised ligand	–	–	100
ERBB2 (Homo sapiens, UniProt P04626)	cell-free assay	competition with immobilised ligand	–	–	88
PIK3CA (Homo sapiens, UniProt P42336)	cell-free assay	competition with immobilised ligand	–	–	69
Non-receptor tyrosine-protein kinase TYK2, JH2 (TYK2, Homo sapiens, UniProt P29597)	cell-free assay	competition with immobilised ligand	–	–	84
Ribosomal protein S6 kinase alpha-5, N-terminal kinase domain (RPS6KA5, Homo sapiens, UniProt O75582)	cell-free assay	competition with immobilised ligand	–	–	100
Tyrosine-protein kinase ABL1, phosphorylated (ABL1, Homo sapiens, UniProt P00519, F317I)	cell-free assay	competition with immobilised ligand	–	–	74
AAK1 (Homo sapiens, UniProt Q2M2I8)	–	KINOMEscan	–	control	100
MAP3K13 (Homo sapiens, UniProt O43283)	cell-free assay	competition with immobilised ligand	–	–	82
ABL1 (Homo sapiens, UniProt P00519, F317I)	–	KINOMEscan	F317I mutant, nonphosphorylated	control	100
TLK1 (Homo sapiens, UniProt Q9UKI8)	cell-free assay	competition with immobilised ligand	–	–	100
STK26 (Homo sapiens, UniProt Q9P289)	cell-free assay	competition with immobilised ligand	–	–	95
MAP2K3 (Homo sapiens, UniProt P46734)	cell-free assay	competition with immobilised ligand	–	–	100
NUAK2 (Homo sapiens, UniProt Q9H093)	cell-free assay	competition with immobilised ligand	–	–	100
TBK1 (Homo sapiens, UniProt Q9UHD2)	cell-free assay	competition with immobilised ligand	–	–	100
MAST1 (Homo sapiens, UniProt Q9Y2H9)	cell-free assay	competition with immobilised ligand	–	–	100
ROS1 (Homo sapiens, UniProt P08922)	cell-free assay	competition with immobilised ligand	–	–	100
